# Published values from different studies.
# Each line is one published result; not all experiments were run side by side. ± marks the error that the study gave.
SMILES,organism,test,test system,conditions,how to read,endpoint,value
Nc1ccn(C[C@@H](CO)OCP(=O)(O)OCCCS(=O)(=O)CCCCCCCCCCC2CCC2)c(=O)n1,human betaherpesvirus 5,cytopathic effect,AD169,,baseline: CC50 over EC50,selectivity index,74
C[C@@H]1C[C@H](Nc2ccccc2)c2cc(F)ccc2N1C(=O)c1ccc(C#N)c(F)c1,Aedes albopictus,,,"1 µM, second-instar larvae",,logit mortality,1.28
Cc1ncccc1-c1ccc(C(=O)N2CC[C@H](C(=O)Nc3cc(F)c(F)c(F)c3)C2)[nH]1,hepatitis B virus,measured: intracellular HBV DNA,HepG2.2.15,"0.1 µM, 144 h",baseline: vehicle,HBV DNA remaining,76%
O=C(O)C(Cc1ccccc1)N1CSC(=S)N(CCN(CCN2CN(C(Cc3ccccc3)C(=O)O)CSC2=S)CCN2CN(C(Cc3ccccc3)C(=O)O)CSC2=S)C1 (stereo not shown),Leishmania tropica,"parasite growth, MTT",,"48 h, promastigote",,IC50,20 µM
N#Cc1nc(N2CCOCC2)nc(N(Cc2ccc(F)cc2)CC2CCCOC2)n1 (stereo not shown),Toxoplasma gondii,qPCR plaque,"HFF host cells, bradyzoite cysts","5 µM, 7 days daily",baseline: DMSO,reduction of cyst viability,~80%
Cc1ccc(NCC(=O)Nc2ccc(F)c(Cl)c2)cc1S(=O)(=O)N1CCOCC1,Plasmodium cynomolgi,,liver-stage small forms (hypnozoites),10 µM,,antiplasmodial activity,no effect
Cc1ccc(NC(=O)N2CCCN3CCC(c4ccc(C#Cc5cccnc5)cc4)C3C2)cc1 (stereo not shown),Toxoplasma gondii,"parasite growth, luciferase","HFF, RH type I luciferase",,,EC90,1260 nM
CCC(=O)Nc1cc(Nc2cc(NC3CC3)n3ncc(C#N)c3n2)ccc1N1CCNCC1,murine hepatitis virus,"viral replication, nanoluciferase reporter","DBT, MHV-nLuc",,,IC50,> 1 µM
CC(C)C[C@H](NC(=O)OCc1cccc(Cl)c1)C(=O)N[C@@H](C[C@H]1CCNC1=O)C(=O)C(=O)NC1CC1,Enterovirus D68,viral replication,WI-38,37 °C,,EC50,90 ± 10 nM
CCCCCCCCCC1CC2CCC3CC(CCCCCCCCC)NC(=N1)N23 (stereo not shown),Candida krusei,fungal growth,ATCC 6258,,,MFC,2.99 µM
CCCCCCCCn1c2ccccc2c2ccncc21,Echinococcus granulosus,eosin staining,sensu stricto protoscoleces,"40 µM, 48 h, 10% fetal bovine serum",,viability,83.1 ± 1.93%
COc1c2c(cc3oc(=O)cc(-c4ccccc4)c13)C(=O)c1cc(C)cc(O)c1C2=O,Bacillus cereus,,MTCC 1306,100 µg/disc,,inhibition zone diameter,8 mm
C#CCN1CCc2c3n(c4ccccc24)C(=O)C(=C)C3(C(=O)OC)C1 (stereo not shown),hepatitis B virus,rcDNA level,HuH7-NTCP,5 µM,,inhibition,< 40%
CC(=O)OC[C@H]1O[C@@H]([Se][C@@H]2O[C@H](COC(C)=O)[C@@H](OC(C)=O)[C@H](OC(C)=O)[C@H]2OC(C)=O)[C@H](OC(C)=O)[C@@H](OC(C)=O)[C@@H]1OC(C)=O,Trypanosoma brucei brucei,,bloodstream form,"5 µM, 24 h, 1 % DMSO",,viability,≤ 50%
CCOC(=O)/C=C/c1ccc(OCCNS(=O)(=O)c2c(Cl)cccc2Cl)c(OC)c1,tobacco mosaic virus,half-leaf method,tobacco,500 µg/mL,,curative activity,55.3 ± 2.9%
Cc1ccc(NC(=O)N2CCCN3CCC(c4ccc(C#CC5=CCCC5)cc4)C3C2)cc1 (stereo not shown),Toxoplasma gondii,parasite growth,"HFF, RH type I luciferase",,,EC90,3090 ± 190 nM
O=C[C@H](C[C@H]1CCNC1=O)NC(=O)[C@H](CC1CCCCC1)NC(=O)OCc1cccc(Cl)c1,Enterovirus D68,viral replication,WI-38,37 °C,,EC50,80 ± 20 nM
COc1ccc(-c2nc(-c3ccccc3OC)[nH]c2-c2ccc(OC)cc2)cc1,Schistosoma mansoni,,mature male and female worms,"5 µM, 96 h",,worm killing,0%
Cc1ccc(S(=O)(=O)N(CCc2nnc(S)o2)c2ccccc2)cc1,Colletotrichum capsici,cup plate method,,100 µg/mL,baseline: fluconazole,relative inhibition,64.7%
Cc1nccc2c3ccccc3n(Cc3cccnc3)c12,Echinococcus granulosus,eosin staining,sensu stricto protoscoleces,"40 µM, 48 h, 10% fetal bovine serum",,viability,59 ± 2.86%
COC1C=COC2(C)Oc3c(C)c(O)c4c(c3C2=O)C2=NC3(CCN(CC(C)C)CC3)NC2=C(NC(=O)C(C)=CC=CC(C)C(O)C(C)C(O)C(C)C(OC(=O)Nc2cccnn2)C1C)C4=O (stereo not shown),Mycobacteroides abscessus,,"subsp. abscessus ATCC 19977, GM-CSF knockout mouse, acute infection, lung","oral, 25 mg/kg daily, 7 doses",baseline: start of treatment,lung CFU reduction,> 2 log CFU
COc1ccc(NC(=O)N2CCCN3CCC(c4ccc(C#CCc5ccccc5)cc4)C3C2)cc1 (stereo not shown),Toxoplasma gondii,parasite growth,"HFF, RH type I luciferase",,,EC90,> 10000 nM
COc1ccc(C(=O)N2c3ccc(F)cc3[C@@H](Nc3ccccc3)C[C@H]2C)cc1,Aedes albopictus,,,"1 µM, second-instar larvae",,logit mortality,-0.16
N=C(NO)NN=Cc1nccc2c([N+](=O)[O-])cccc12,human mastadenovirus C,plaque reduction,"A549, McEwen",,baseline: TC50 over IC50,selectivity index,6.3
CCCCc1ccc(C(=O)N2c3ccc(F)cc3[C@@H](Nc3ccccc3)C[C@H]2C)cc1,Aedes albopictus,,,"1 µM, second-instar larvae",,logit mortality,-0.33
C#CCN1CCC23C(=C(C(=O)OC)CC(C(=O)OC)C12)Nc1ccccc13 (stereo not shown),hepatitis B virus,HBsAg secretion,HepAD38,,baseline: CC50 over IC50,selectivity index,> 20.1
CCCCCCCCC1=C(C(CCCCCCC(=O)OC)OC)C1 (stereo not shown),Toxoplasma gondii,,"Vero, RH",,baseline: CC50 over EC50,selectivity index,> 4
O=C(Nc1ccc2c(c1)CN(c1ccc(Cl)cc1)C2=O)N1CC[C@H](F)C1,Trypanosoma brucei brucei,"cell growth, resazurin",Squib 427,3 days,,IC50,> 64 µM
Cc1ccc(NC(=O)N2CCCN3CCC(c4ccc(C#CC5(O)CCCCC5)cc4)C3C2)cc1 (stereo not shown),Toxoplasma gondii,parasite growth,"HFF, RH type I luciferase",,,EC90,460 ± 40 nM
CC[Se][C@@H]1O[C@H](COC(C)=O)[C@@H](OC(C)=O)[C@H](OC(C)=O)[C@H]1OC(C)=O,Trypanosoma brucei brucei,,bloodstream form,"5 µM, 24 h, 1 % DMSO",,viability,92.8 ± 19.5%
CN[C@H](CC(C)C)C(=O)N[C@H]1C(=O)N[C@@H](CC(N)=O)C(=O)N[C@H]2C(=O)N[C@H]3C(=O)N[C@H](C(=O)N[C@H](C(=O)O)c4cc(O)cc(O)c4-c4cc3ccc4O)[C@H](O)c3ccc(c(Cl)c3)Oc3cc2cc(c3O[C@@H]2O[C@H](CO)[C@@H](O)[C@H](O)[C@H]2O[C@H]2C[C@](C)(NCc3ccc(C(=O)OCCCCCCN(Cc4ccccn4)Cc4ccccn4)cc3)[C@H](O)[C@H](C)O2)Oc2ccc(cc2Cl)[C@H]1O,Bacillus subtilis,"protein synthesis, measured: LiaH.2",168,"concentration not given, 10 min, at peak effective concentration",baseline: untreated,regulation factor,131 ± 66
COc1ccc(NC(=O)N2CCCN3CCC(c4ccc(C#CC5CCCCC5)cc4)C3C2)cc1 (stereo not shown),Toxoplasma gondii,parasite growth,"HFF, RH type I luciferase",,,EC90,710 ± 220 nM
O=C1CC(c2ccc(O)cc2)Oc2cc(O)cc([O][Ga+][O]c3cc(O)cc4c3C(=O)CC(c3ccc(O)cc3)O4)c21 (stereo not shown),Pseudomonas aeruginosa,RNA-seq,PAO1,"4 µM, 4 h",,number of differentially expressed genes,1530
O=C(N[C@@H](CC1CCCCC1)C(=O)N[C@@H](C[C@H]1CCNC1=O)C(=O)C(=O)NC1CC1)OCc1cccc(Cl)c1,Enterovirus D68,viral replication,WI-38,,,EC90,130 nM
CCCCCCCCCC1CC2CCCC3CC(CCCCCCCCC)NC(=N1)N23 (stereo not shown),Candida krusei,fungal growth,ATCC 6258,,,MFC,2.9 µM
O=C[C@H](C[C@H]1CCNC1=O)NC(=O)[C@H](Cc1ccccc1)NC(=O)OCc1ccccc1,Enterovirus D68,viral replication,WI-38,37 °C,,EC50,80 ± 20 nM
Cc1ncc(COP(=O)(O)O)c(C=NNC(=N)NO)c1O,Herpes simplex virus 1,"viral replication, plaque reduction","Vero, McKrae",4 days,,IC50,inactive
C[C@@H]1C[C@H](Nc2ccccc2)c2cc(F)ccc2N1C(=O)c1ccc(Cl)c(Cl)c1,Aedes albopictus,,,"1 µM, second-instar larvae",,logit mortality,0.48
CC(=O)[O-].O.O.O.O.[Ni+2].[O-]c1ccc(Br)cc1C=NCCN1CCOCC1,Bacillus cereus,,,20 µL of 100 µM per disc,,inhibition zone diameter,23 mm
C[C@@H]1C(=O)O[C@@H](C)/C=C/C=C\[C@@H](C)[C@@H]2C=C[C@@H]3C[C@@]4(C)O[C@H]4[C@@H](C)[C@H]3[C@@H]2C(=O)C(Cl)(Cl)C1=O,Staphylococcus aureus,,MSSA and MRSA clinical isolates,,,MIC90,0.1 µg/mL
COc1c2c(cc3oc(=O)cc(-c4ccc(O)cc4)c13)C(=O)c1cc(C)cc(O)c1C2=O,Bacillus cereus,,MTCC 1306,100 µg/disc,,zone of inhibition,12 mm
Cc1ccc(NC(=O)N2CCCN3CCC(c4ccc(C#CC5CCCC5O)cc4)C3C2)cc1 (stereo not shown),Toxoplasma gondii,"parasite growth, luciferase","HFF, RH type I luciferase",,,EC90,520 nM
O=S(=O)(O)CCCCCCCCCCCSC[C@H]1O[C@@H]2O[C@H]3[C@H](O)[C@@H](O)[C@@H](O[C@H]4[C@H](O)[C@@H](O)[C@@H](O[C@H]5[C@H](O)[C@@H](O)[C@@H](O[C@H]6[C@H](O)[C@@H](O)[C@@H](O[C@H]7[C@H](O)[C@@H](O)[C@@H](O[C@H]8[C@H](O)[C@@H](O)[C@@H](O[C@H]1[C@H](O)[C@H]2O)O[C@@H]8CSCCCCCCCCCCCS(=O)(=O)O)O[C@@H]7CSCCCCCCCCCCCS(=O)(=O)O)O[C@@H]6CSCCCCCCCCCCCS(=O)(=O)O)O[C@@H]5CSCCCCCCCCCCCS(=O)(=O)O)O[C@@H]4CSCCCCCCCCCCCS(=O)(=O)O)O[C@@H]3CSCCCCCCCCCCCS(=O)(=O)O,Enterovirus D68,viral replication,Fermon,concentration not given,,antiviral activity,no inhibition
C#CCN1CCc2c(n(C(=C)C(=O)OC)c3ccccc23)C(C(=O)OC)C1 (stereo not shown),hepatitis B virus,HBsAg secretion,HuH7-NTCP,5 µM,,inhibition,> 90%
CC[C@@H](C)[C@@H](NC(=O)[C@@H](C)NC(=O)[C@@H](CCCCN)NC(=O)[C@@H](CC(C)C)NC(=O)[C@@H](C)NC(=O)[C@H](NC(=O)[C@@H](CCCCN)NC(=O)[C@@H](CC(C)C)NC(=O)[C@H](NC(=O)[C@@H](CCCCN)NC(=O)[C@@H](CCCCN)NC(=O)[C@@H](CCCCN)NC(=O)[C@@H](C)NC(=O)[C@@H](CCCCN)NC(=O)[C@@H](CO)NC(=O)[C@@H](Cc1ccccc1)NC(=O)[C@H](NC(=O)[C@@H](CCCCN)NC(=O)[C@@H](CC(C)C)NC(=O)[C@@H](Cc1ccccc1)NC(=O)[C@@H](CO)NC(=O)[C@@H](CCCCN)NC(=O)[C@@H](Cc1c[nH]c2ccccc12)NC(=O)[C@@H](CCCCN)NC(C)=O)[C@H](C)O)C(C)C)[C@H](C)O)C(=O)N[C@H](CO)C(=O)N[C@H](CCCCN)C(N)=O,Acinetobacter baumannii,,"689, Mueller-Hinton broth","24 h, 37 °C",,MIC,0.7 µM
COC(=O)/C=C/c1ccc(OCCNS(=O)(=O)c2ccc(NC(C)=O)cc2)c(OC)c1,tobacco mosaic virus,half-leaf method,tobacco,"500 µg/mL, 24 h before inoculation",,protective activity,59.7 ± 6.2%
O=C(Nc1ccccc1Nc1ccccc1)c1cccnc1Br,Sclerotinia sclerotiorum,microbial growth,,50 µg/mL,,inhibition,8.2%
CC1(CCCCCCCCCCCCCCOCCCOP(=O)(O)CO[C@H](CO)Cn2ccc(N)nc2=O)COC1,human betaherpesvirus 5,cytopathic effect,AD169,,baseline: CC50 over EC50,selectivity index,> 3000
O=C(CCNC(=O)c1ccsc1)Nc1cccc(Oc2ccc(Cl)cc2)c1,hepatitis B virus,RT-qPCR,HepG2.2.15.7,10 µM,baseline: control,pgRNA level,1.47 fold
O=c1c(-c2nc3ccccc3s2)cc2c(n1NS(=O)(=O)c1ccc(Cl)cc1)CCCCCC2,Coxsackievirus B4,"viral replication, plaque reduction",BGM cells,,baseline: CC50 over IC50,selectivity index,3.23
Cc1ncc([N+](=O)[O-])n1CCOCc1nnc(SCC(=O)c2ccc(F)cc2)o1,Enterobacter cloacae,,DMSO,"60 µg/mL, 24 h, 37 °C",,inhibition zone diameter,10 to 15 mm
COc1ccc(NC(=O)N2CCCN3CC[C@H](c4ccc(CCc5ccccc5)cc4)[C@@H]3C2)cc1,Toxoplasma gondii,,"HFF, RH (type I)",concentration not given,,growth inhibition,inactive
C[C@@H]1C[C@H](Nc2ccccc2)c2cc(F)ccc2N1C(=O)c1ccc(C(F)(F)F)c(F)c1,Aedes albopictus,,,"1 µM, second-instar larvae",,logit mortality,0.52
COc1c2c(cc3oc(=O)cc(C)c13)C(=O)c1cc(C)cc(O)c1C2=O,Bacillus cereus,,MTCC 1306,100 µg/disc,,zone of inhibition,8 mm
Cc1ccc(NC(=O)N2CCCN3CCC(c4ccc(C#CC5CCCCC5)cc4)C3C2)cc1 (stereo not shown),Toxoplasma gondii,parasite growth,"HFF, RH type I luciferase",,,EC90,1810 ± 410 nM

# For quick reference, copied from above:
SMILES,organism,test,test system,conditions,how to read,endpoint,value
CCCCc1ccc(C(=O)N2c3ccc(F)cc3[C@@H](Nc3ccccc3)C[C@H]2C)cc1,Aedes albopictus,,,"1 µM, second-instar larvae",,logit mortality,-0.33
C#CCN1CCC23C(=C(C(=O)OC)CC(C(=O)OC)C12)Nc1ccccc13 (stereo not shown),hepatitis B virus,HBsAg secretion,HepAD38,,baseline: CC50 over IC50,selectivity index,> 20.1
CCCCCCCCC1=C(C(CCCCCCC(=O)OC)OC)C1 (stereo not shown),Toxoplasma gondii,,"Vero, RH",,baseline: CC50 over EC50,selectivity index,> 4
O=C(Nc1ccc2c(c1)CN(c1ccc(Cl)cc1)C2=O)N1CC[C@H](F)C1,Trypanosoma brucei brucei,"cell growth, resazurin",Squib 427,3 days,,IC50,> 64 µM
Cc1ccc(NC(=O)N2CCCN3CCC(c4ccc(C#CC5(O)CCCCC5)cc4)C3C2)cc1 (stereo not shown),Toxoplasma gondii,parasite growth,"HFF, RH type I luciferase",,,EC90,460 ± 40 nM
